Published values collected from several papers.
Compare with care: the assays were run in different laboratories. Values joined by “and” are separate records of one study, mostly repeats; a detail may differ. ± gives the spread as reported.
HDAC11: Histone deacetylase 11 (HDAC11, Homo sapiens, UniProt Q96DB2)
Chain of UniProt Q96DB2 (whole entry, looked up): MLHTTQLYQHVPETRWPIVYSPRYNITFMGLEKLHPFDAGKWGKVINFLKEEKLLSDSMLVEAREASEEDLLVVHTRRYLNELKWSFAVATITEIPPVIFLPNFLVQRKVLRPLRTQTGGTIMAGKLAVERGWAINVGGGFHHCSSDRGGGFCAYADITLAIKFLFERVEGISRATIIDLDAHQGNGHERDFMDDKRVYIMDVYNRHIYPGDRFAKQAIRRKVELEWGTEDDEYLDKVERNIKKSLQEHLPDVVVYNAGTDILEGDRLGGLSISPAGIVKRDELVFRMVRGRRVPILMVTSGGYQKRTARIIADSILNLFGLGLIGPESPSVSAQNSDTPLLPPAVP
HTR5A: 5-hydroxytryptamine receptor 5A (HTR5A, Homo sapiens, UniProt P47898)
Chain of UniProt P47898 (whole entry, looked up): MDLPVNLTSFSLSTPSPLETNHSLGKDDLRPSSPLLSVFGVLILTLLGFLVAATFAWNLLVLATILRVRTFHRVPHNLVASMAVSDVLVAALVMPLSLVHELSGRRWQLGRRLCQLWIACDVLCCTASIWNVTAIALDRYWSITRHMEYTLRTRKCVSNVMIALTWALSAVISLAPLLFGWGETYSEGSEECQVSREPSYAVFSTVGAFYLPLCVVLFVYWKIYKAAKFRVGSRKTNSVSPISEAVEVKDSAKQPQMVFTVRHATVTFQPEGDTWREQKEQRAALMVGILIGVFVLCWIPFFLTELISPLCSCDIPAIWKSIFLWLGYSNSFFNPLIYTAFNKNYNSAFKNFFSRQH
AMY2: Pancreatic alpha-amylase (AMY2, Sus scrofa, UniProt P00690)
Chain of UniProt P00690 (whole entry, looked up): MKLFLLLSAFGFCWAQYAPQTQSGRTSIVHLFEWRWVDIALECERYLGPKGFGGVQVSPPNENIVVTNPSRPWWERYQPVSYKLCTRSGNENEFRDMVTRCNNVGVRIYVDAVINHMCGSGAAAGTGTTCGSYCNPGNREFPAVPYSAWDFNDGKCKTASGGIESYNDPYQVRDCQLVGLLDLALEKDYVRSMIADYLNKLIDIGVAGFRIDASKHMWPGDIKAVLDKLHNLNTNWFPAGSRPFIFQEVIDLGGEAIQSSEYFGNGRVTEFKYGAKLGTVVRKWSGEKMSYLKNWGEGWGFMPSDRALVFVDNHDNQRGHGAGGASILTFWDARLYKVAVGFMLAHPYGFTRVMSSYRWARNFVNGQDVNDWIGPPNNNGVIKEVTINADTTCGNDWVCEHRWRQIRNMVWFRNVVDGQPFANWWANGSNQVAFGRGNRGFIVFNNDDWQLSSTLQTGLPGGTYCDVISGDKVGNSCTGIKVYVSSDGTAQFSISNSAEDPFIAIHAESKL
HTR2B: 5-hydroxytryptamine receptor 2B (HTR2B, Homo sapiens, UniProt P41595)
Chain of UniProt P41595 (whole entry, looked up): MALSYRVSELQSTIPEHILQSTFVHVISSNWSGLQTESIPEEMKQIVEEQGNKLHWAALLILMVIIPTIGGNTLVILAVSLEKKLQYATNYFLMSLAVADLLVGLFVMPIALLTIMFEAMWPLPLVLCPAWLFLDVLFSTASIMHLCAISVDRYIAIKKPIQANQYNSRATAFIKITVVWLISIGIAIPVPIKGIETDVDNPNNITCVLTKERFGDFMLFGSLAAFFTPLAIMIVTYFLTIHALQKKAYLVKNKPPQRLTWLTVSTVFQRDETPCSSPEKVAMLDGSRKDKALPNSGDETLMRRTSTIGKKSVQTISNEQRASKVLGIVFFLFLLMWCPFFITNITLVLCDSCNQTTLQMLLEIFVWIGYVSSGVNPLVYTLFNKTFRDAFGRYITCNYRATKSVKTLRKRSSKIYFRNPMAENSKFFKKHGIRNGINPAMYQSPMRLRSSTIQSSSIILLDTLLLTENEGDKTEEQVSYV
DRD4: D(4) dopamine receptor (DRD4, Homo sapiens, UniProt P21917)
Chain of UniProt P21917 (whole entry, looked up): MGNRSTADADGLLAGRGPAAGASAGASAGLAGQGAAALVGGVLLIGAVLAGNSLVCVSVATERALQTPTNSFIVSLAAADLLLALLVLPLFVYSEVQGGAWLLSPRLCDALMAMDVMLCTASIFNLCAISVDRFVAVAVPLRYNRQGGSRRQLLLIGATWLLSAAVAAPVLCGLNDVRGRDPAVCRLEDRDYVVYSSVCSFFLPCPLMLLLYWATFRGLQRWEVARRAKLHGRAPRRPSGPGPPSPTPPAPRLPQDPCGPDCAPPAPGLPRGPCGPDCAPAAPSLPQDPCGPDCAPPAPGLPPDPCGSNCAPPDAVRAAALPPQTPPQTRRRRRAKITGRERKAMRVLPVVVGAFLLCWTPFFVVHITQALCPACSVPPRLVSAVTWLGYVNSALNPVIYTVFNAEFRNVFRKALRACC
SCN5A: Sodium channel protein type 5 subunit alpha (SCN5A, Homo sapiens, UniProt Q14524)
Chain of UniProt Q96S37 (whole entry, looked up): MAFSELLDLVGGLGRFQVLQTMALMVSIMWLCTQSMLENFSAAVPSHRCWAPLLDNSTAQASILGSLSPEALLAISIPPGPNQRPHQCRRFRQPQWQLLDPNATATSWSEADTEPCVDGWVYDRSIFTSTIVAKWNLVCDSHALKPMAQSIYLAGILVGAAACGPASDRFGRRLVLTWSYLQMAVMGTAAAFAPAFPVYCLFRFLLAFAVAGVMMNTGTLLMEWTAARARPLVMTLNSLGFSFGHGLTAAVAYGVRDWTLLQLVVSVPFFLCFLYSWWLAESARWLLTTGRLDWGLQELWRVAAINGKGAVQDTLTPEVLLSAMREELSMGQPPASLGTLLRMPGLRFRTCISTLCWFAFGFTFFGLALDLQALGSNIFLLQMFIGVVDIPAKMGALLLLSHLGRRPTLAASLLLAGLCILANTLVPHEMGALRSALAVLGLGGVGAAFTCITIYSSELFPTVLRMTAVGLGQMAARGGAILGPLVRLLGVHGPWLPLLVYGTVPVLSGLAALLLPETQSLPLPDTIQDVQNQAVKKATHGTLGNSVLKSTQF
Chain of UniProt Q14524 (whole entry, looked up): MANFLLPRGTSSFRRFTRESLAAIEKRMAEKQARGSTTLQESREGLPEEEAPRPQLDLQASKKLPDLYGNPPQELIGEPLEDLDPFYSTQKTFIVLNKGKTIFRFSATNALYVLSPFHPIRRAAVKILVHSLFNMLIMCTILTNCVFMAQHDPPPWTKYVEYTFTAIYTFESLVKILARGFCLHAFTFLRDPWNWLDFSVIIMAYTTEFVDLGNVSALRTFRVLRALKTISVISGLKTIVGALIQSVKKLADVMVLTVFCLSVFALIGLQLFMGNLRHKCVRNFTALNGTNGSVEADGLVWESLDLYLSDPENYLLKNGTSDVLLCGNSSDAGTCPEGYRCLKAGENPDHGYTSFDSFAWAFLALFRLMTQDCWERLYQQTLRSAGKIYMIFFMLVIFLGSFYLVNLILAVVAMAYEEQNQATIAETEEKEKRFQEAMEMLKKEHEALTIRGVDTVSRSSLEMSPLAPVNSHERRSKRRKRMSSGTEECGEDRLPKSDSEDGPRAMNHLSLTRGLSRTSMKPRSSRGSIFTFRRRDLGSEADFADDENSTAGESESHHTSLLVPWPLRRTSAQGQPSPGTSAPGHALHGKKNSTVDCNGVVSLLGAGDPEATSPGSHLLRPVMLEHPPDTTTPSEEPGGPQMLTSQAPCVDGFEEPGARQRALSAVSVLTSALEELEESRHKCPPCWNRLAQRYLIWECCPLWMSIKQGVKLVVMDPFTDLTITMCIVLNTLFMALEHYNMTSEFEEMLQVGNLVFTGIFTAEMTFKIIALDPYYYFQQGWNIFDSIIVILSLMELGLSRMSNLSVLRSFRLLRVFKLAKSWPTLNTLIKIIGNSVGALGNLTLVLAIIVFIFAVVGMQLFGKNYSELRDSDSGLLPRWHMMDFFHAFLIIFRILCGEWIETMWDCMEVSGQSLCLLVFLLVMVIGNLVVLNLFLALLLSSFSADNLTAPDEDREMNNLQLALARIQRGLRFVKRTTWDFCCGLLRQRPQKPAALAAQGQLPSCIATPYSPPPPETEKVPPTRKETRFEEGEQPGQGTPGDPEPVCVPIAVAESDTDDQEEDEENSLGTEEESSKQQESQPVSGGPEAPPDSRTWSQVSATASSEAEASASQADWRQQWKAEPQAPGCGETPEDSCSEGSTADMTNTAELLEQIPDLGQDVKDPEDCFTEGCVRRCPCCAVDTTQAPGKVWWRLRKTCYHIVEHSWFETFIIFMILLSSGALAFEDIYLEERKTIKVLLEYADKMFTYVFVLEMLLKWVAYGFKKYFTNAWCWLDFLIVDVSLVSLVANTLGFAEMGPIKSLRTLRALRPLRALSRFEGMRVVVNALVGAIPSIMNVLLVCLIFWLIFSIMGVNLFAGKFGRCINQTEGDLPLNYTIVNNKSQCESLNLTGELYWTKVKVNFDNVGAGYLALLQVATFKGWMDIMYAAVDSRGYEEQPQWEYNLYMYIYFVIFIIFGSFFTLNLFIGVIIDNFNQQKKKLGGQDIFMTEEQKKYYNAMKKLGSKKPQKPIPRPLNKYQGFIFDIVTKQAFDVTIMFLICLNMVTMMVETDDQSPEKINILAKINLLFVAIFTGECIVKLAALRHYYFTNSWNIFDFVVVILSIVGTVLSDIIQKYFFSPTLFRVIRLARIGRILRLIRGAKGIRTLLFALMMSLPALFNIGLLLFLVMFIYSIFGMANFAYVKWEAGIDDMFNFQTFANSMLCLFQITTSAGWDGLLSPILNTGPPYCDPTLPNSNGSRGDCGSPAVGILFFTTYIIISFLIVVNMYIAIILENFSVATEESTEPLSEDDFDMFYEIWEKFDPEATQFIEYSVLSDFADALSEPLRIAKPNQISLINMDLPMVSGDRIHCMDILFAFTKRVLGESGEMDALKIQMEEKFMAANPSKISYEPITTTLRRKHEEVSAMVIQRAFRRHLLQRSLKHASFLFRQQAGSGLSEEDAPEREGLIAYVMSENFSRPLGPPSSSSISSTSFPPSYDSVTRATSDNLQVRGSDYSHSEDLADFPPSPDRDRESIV

Compound | target | assay | system | setting | inhibition
O=C(Nc1cccc2c(=O)cc(-c3nnn[nH]3)oc12)c1ccc(OCCCCc2ccccc2)cc1 | Volume-regulated anion channel subunit LRRC8C, part LRRC8A IL1 chimera (LRRC8C, Homo sapiens, UniProt Q8TDW0, Y126F) | ion current, inhibitor, whole-cell patch clamp | HCT LRRC8-/- cells | 0.3 µM, +100 mV | 43.4% and 32.4% and 47.2% and 41.1%
CC(C)c1cccc(OS(=O)(=O)Oc2cncc(C(=O)NO)c2)c1 | HDAC11 |  |  | 10 µM | 59%
Cc1cc(O)c(-c2ccc([C@@H](C)CN(C)C)cc2)c2c1[nH]c(=O)c1sccc12 | Non-receptor tyrosine-protein kinase TYK2, JH2 pseudokinase domain (TYK2, Homo sapiens, UniProt P29597) | inhibitor, KiNativ probe labelling | cell lysate | 0.1 µM | 6.97%
CC[C@@H]1[C@H](F)C(=O)N[C@@H]1COc1nccc2cc(C(N)=O)c(OC)cc12 | Serine/threonine-protein kinase PRP4 homolog (PRPF4B, Homo sapiens, UniProt Q13523) | ATP-site probe binding, ActivX profiling | THP-1 cell lysate | 0.01 mM, Lys2 site | 15.8%
COc1ccc2c(c1)C(=O)N(CCCN1CCN(c3ccccc3OC)CC1)C2 | HTR5A | radioligand binding |  | concentration not given, together with: [3H]LSD | 64.5%
C=C1C(=O)O[C@@H]2C[C@@]3(C)CCC[C@H](C)C3=C[C@H]12 | Toll-like receptor 2 (TLR2, Homo sapiens, UniProt O60603) | SEAP reporter gene, antagonist | HEK-Blue hTLR2 | 10 µM, together with: Pam3CSK4 | > 90%
C[C@H]1O[C@H](O[C@H]2[C@H](O)[C@@H](O)[C@@H](O[C@H]3[C@H](O)[C@@H](O)C(O)O[C@@H]3CO)O[C@@H]2CO)[C@H](O)[C@@H](O)[C@@H]1N[C@H]1C=C(CO)[C@@H](O)[C@H](O)[C@H]1O (stereo partly drawn) | AMY2 | enzyme activity, inhibitor |  | concentration not given | 98.6 ± 1.23%
Clc1cncc(OC[C@H]2CN(CCN3CCc4ccccc43)CCO2)c1 | HTR5A | radioligand binding |  | concentration not given, together with: [3H]LSD | -16.6%
COc1cc(C(=O)NS(=O)(=O)c2ccccc2C)ccc1Cc1cn(C)c2ccc(NC(=O)OC3CCCC3)cc12 | Volume-regulated anion channel subunit LRRC8C, part LRRC8A IL1 chimera (LRRC8C, Homo sapiens, UniProt Q8TDW0, M48D) | ion current, inhibitor, whole-cell patch clamp | HCT LRRC8-/- cells | 1 µM, constitutively open channel, +100 mV | 3.23% and 5.81% and 10.5% and 2.9% and 7.08% and -0.571%
O=C(CN1CCO[C@H](COc2cccnc2)C1)N1CCc2ccccc21 | HTR2B | radioligand binding |  | concentration not given, together with: [3H]LSD | 58.8%
O=C(NO)c1cc(F)cc(OS(=O)(=O)Oc2ccc(C(F)(F)F)cc2)c1 | HDAC11 |  |  | 10 µM | 48%
Cc1ccnc(OC[C@H]2CN(CC(=O)N3CCc4ccccc43)CCO2)c1 | DRD4 | radioligand binding |  | concentration not given, together with: [3H]N-methylspiperone | 44.1%
CCc1oc2ccccc2c1C(=O)c1cc(Br)c(O)c(Br)c1 | Solute carrier family 22 member 12 (SLC22A12, Homo sapiens, UniProt Q96S37) | urate uptake | HEK-293T | 0.5 µM, 10 min, 37 °C, together with: [14C]urate 200 µM | 65.6% and 40.6% and 69% and 59.9% and 70% and 63.8% and 67%
O=C1c2ccccc2CCN1CCCCN1CCN(c2ccccn2)CC1 | HTR5A | radioligand binding |  | concentration not given, together with: [3H]LSD | 49.6%
NC/C(=C\F)COc1cccc(Cn2c(=S)[nH]c(=O)c3[nH]cnc32)c1 | SCN5A | peak sodium current, inhibitor, automated patch clamp |  | 10 µM, pulse 9, single recording | 17.3%
O=c1c(O)c(-c2ccc(O)c(O)c2)oc2cc(O)cc(O)c12 | AMY2 | enzyme activity |  | concentration not given, together with: CNP-G3 substrate | 92.2% and 95.9%
Cc1cc(OS(=O)(=O)Oc2ccc(-n3ccnc3)cc2)cc(C(=O)NO)c1 | HDAC11 |  |  | 10 µM | 57%
CCCCCCCCCCCCCC(=S)NCCCC[C@H](NC(=O)OCc1ccccc1)C(=O)N[C@@H](Cc1c[nH]c2ccccc12)C(=O)NC(C)C | NAD-dependent protein deacetylase sirtuin-1 (SIRT1, Homo sapiens, UniProt Q96EB6) | enzyme activity, inhibitor |  | 10 µM | < 5%
CCS(=O)(=O)c1nc(S(=O)(=O)c2ccccc2Cl)c(N2CCN(C)C(=O)[C@H]2C)s1 | Alpha-1A adrenergic receptor (ADRA1A, Homo sapiens, UniProt P35348) |  |  | 10 µM | 4.92%
Cc1cc2c(cc1N1C(=O)c3cccc4c(CCCO)ccc(c34)C1=O)n(C)c(=O)n2C (racemic) | Protein polybromo-1, BD5 (PBRM1, Homo sapiens, UniProt Q86U86) | binding, BROMOscan binding |  | 100 nM | 81%
O=C(NO)c1ccc(CN2CCCCc3ccccc32)c(F)c1 | sigma-2 receptor | radioligand binding |  | 10 µM | 0%
O=C(NO)c1cncc(OS(=O)(=O)Oc2ccc(-n3ccnc3)cc2)c1 | HDAC11 |  |  | 10 µM | 8%
Cc1ncccc1OC[C@@H]1CN(CCN2CCc3ccccc32)CCO1 | HTR2B | radioligand binding |  | concentration not given, together with: [3H]LSD | 28.1%
Cc1ccc(C(=O)Nc2ccc3ccccc3c2)o1 | SCN5A | ion current, inhibitor, whole-cell patch clamp |  | 10 µM | 9.9% and 15.5% and 17.3% and 14.7% and 16.8%
C#Cc1cc(-c2cc(Nc3nc(N[C@@H](C)c4ccc(F)cn4)ncc3Cl)n[nH]2)ccc1C=O | Vascular endothelial growth factor receptor 3 (FLT4, Homo sapiens, UniProt P35916) | enzyme activity, inhibitor |  | 0.2 µM | 53%
O=C1c2ccccc2CCN1CCCCN1CCN(c2cccc(Cl)c2Cl)CC1 | DRD4 | radioligand binding |  | concentration not given, together with: [3H]N-methylspiperone | 100%
CC(C)c1noc2ncc(C(=O)c3ccccc3O)cc12 | SCN5A | ion current, inhibitor, whole-cell patch clamp |  | 10 µM | 9.76% and 10% and 11.2% and 3.6%
c1cncc(OC[C@H]2CN(CCN3CCc4ccccc43)CCO2)c1 | DRD4 | radioligand binding |  | concentration not given, together with: [3H]N-methylspiperone | 61.8%
O=c1cc(-c2ccccc2)oc2cc(O)cc(O)c12 | AMY2 | enzyme activity, inhibitor |  | 50 µM, together with: CNP-G3 substrate | 22.6 ± 0.37%
Cc1cc(-c2ccnc3[nH]cc(F)c23)cc(F)c1[C@@]1(O)[C@H](C)CN(C2CCS(=O)(=O)CC2)C[C@@H]1C | AMPK alpha1 and alpha2 | ATP probe binding, KiNativ, item: Lys1 site | HEK293T cell lysate | 1 µM | 47.1%

A few entries again:
Compound | target | assay | system | setting | inhibition
Cc1cc(O)c(-c2ccc([C@@H](C)CN(C)C)cc2)c2c1[nH]c(=O)c1sccc12 | Non-receptor tyrosine-protein kinase TYK2, JH2 pseudokinase domain (TYK2, Homo sapiens, UniProt P29597) | inhibitor, KiNativ probe labelling | cell lysate | 0.1 µM | 6.97%
O=c1cc(-c2ccccc2)oc2cc(O)cc(O)c12 | AMY2 | enzyme activity, inhibitor |  | 50 µM, together with: CNP-G3 substrate | 22.6 ± 0.37%
COc1cc(C(=O)NS(=O)(=O)c2ccccc2C)ccc1Cc1cn(C)c2ccc(NC(=O)OC3CCCC3)cc12 | Volume-regulated anion channel subunit LRRC8C, part LRRC8A IL1 chimera (LRRC8C, Homo sapiens, UniProt Q8TDW0, M48D) | ion current, inhibitor, whole-cell patch clamp | HCT LRRC8-/- cells | 1 µM, constitutively open channel, +100 mV | 3.23% and 5.81% and 10.5% and 2.9% and 7.08% and -0.571%
